# Published values pooled from the literature.
# Every numbered part comes from another study and shows a few of its results, in no order.

# Block 1 — technique: protein-binding microarray; form: double-stranded DNA, one strand shown; medium: in vitro; tested at: 2540 nM top; setting: 60-bp whole probe; together with: salmon DNA 0.4 mg/ml; baseline: random background probes; reading: higher = stronger binding; shared flanks, not repeated: GCCTAGCAC … GTCTTGATTCGCTTGACGCTGCTG
# Target: Interferon regulatory factor 3, full length, phosphomimetic (IRF3, Homo sapiens, UniProt Q14653, residues 1-427, S386D/S396D/S398D/S402D/T404D/S405D)
# Sequence of UniProt Q14653 (whole entry, unmodified, looked up): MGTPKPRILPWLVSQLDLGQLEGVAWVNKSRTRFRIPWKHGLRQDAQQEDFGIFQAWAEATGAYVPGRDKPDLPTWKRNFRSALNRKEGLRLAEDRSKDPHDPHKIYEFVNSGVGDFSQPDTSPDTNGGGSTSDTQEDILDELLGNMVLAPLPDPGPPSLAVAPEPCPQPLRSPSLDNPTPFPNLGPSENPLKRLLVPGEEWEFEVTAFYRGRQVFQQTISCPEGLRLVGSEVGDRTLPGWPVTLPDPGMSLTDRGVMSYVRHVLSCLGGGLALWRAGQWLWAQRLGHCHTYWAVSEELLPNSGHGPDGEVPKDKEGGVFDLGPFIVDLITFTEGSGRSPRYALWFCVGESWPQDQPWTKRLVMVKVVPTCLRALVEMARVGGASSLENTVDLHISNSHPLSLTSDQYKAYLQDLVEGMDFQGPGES
Oligonucleotide,fitted relative affinity [z-score]
TTAGATCTAAGACTGGATTAGTGCTAG,-0.343
GCCGGTTTCCTTTTCCTGACGTGCTAG,11.1
GACGATTTCTGTCTCGAGACGTGCTAG,2.22
CTATTTTTCCCCTGCACTCAGTGCTAG,1.61
ACGCATGTGGGTTCCATCATGTGCTAG,-0.287
GACGATTTCGGGACTTGAGACGTGCTA,1.55
CACGGTTTCGACTATCGGGACGTGCTA,2.37
GACGGACTGGGGATTGGGGACGTGCTA,-0.64
GTCGGTCTCGGTTTCGGGACGTGCTAG,4.63
GACGGTATCCTACTGCGGACGTGCTAG,2.9
CCAGATTTCCCCACCATCTAGTGCTAG,1.02
TTACGACTGGGGTATCGGTTAGTGCTA,0.197
TTTATTTTTTTTATTTATAAGTGCTAG,1.72
TCAAAGATCATTCTCACACTGTGCTAG,0.936
TTAGGCATCGGGTATCGGTTAGTGCTA,-0.0269
TTAGGTATCGGGTATCGGTGAGTGCTA,1.49
TTAGTACTGCTACTGCTTTAGTGCTAG,-0.274

# Block 2 — technique: universal PBM; form: double-stranded DNA, one strand shown; medium: in vitro; tested at: 600 nM; reading: higher = stronger binding
# Target: Sal-like protein 4, full length isoform A (SALL4, Homo sapiens, UniProt Q9UJQ4, residues 1-1053)
# Sequence of UniProt Q9UJQ4 (whole entry, looked up): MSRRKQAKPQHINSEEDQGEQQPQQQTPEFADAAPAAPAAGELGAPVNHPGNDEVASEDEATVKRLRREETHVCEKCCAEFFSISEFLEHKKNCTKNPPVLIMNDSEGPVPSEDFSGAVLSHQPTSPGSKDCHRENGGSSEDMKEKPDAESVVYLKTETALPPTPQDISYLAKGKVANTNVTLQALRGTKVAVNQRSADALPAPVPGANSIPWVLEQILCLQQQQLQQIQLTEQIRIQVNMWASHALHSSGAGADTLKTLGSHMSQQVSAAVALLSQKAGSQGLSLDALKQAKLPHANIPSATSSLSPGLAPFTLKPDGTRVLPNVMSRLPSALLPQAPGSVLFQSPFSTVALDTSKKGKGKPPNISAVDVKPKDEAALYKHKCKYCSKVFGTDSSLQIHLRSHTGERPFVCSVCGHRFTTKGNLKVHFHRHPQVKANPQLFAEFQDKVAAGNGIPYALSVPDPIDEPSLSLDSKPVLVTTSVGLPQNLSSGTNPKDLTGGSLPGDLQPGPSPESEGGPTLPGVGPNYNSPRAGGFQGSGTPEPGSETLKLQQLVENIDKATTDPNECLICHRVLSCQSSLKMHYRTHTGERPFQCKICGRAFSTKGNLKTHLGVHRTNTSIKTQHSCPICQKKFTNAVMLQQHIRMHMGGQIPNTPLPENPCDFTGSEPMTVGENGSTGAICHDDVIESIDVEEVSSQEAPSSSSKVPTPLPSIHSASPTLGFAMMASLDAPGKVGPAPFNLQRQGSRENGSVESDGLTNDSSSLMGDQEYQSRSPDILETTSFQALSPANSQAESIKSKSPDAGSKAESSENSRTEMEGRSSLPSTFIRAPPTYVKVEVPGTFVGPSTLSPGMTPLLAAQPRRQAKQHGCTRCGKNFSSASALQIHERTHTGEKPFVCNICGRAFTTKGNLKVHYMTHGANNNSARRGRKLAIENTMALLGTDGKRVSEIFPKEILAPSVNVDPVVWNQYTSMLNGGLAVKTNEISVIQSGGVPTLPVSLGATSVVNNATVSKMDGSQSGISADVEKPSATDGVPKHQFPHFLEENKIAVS
# Setting: 8-mer, flanks averaged, mean of replicates
Oligonucleotide,E-score
CGGCGAAA,-0.0257
ACCACGCG,-0.258
GGAACTCA,-0.0401
TCGGAAGA,-0.0779
CAACGAGC,-0.295
ATCAGCAA,-0.0753
CGATACCG,-0.177
CACCTGTA,-0.0236
CTCGGTAC,-0.22
CGGAGGTC,-0.206
CTGCTAGC,-0.239
ATTTGGCC,-0.0898
AGTCTGAC,-0.0863
GTGCCATA,0.123
CGATATGC,0.0847
AATGCTCG,0.111
AACATGCT,-0.0237
GAGGCATA,0.0763
GATTATCC,-0.0659
CCATCCGA,-0.0529
ATCTAACG,0.101
CCACGGGC,-0.396
CTGACTTC,-0.132

# Block 3 — technique: aptamer microarray, sandwich; form: DNA with 2'F-ANA; medium: in vitro; tested at: 200 nM; together with: Cy3 exosite-II aptamer, 400 nM; reading: higher = stronger binding; oligonucleotide: GGTTGGTGTGGTTGG
# Target: Prothrombin, mature alpha-thrombin (F2, Homo sapiens, UniProt P00734)
# Setting: whole 15-mer aptamer, many near background
Modification,mean fluorescence intensity [a.u.]
2'F-ANA at 2 3 5 6 8 9 10 12 14 15,50.8
2'F-ANA at 1 2 8 9 15,389
2'F-ANA at 2 5 6 8 9 10 13 14 15,48.5
2'F-ANA at 5 7 9 11 12 13 14,49.4
2'F-ANA at 1 2 4 8 9 10 13 15,53.1
2'F-ANA at 2 3 4 9 11 13 15,433
2'F-ANA at 4 5 6 7 8 9 10 11 13 14 15,50.3
2'F-ANA at 1 2 3 4 6 7 8 9 10 11 12,67.2
2'F-ANA at 2 3 4 12 13 14,363
2'F-ANA at 1 2 3 9 10 11 12 13 14,52.2
2'F-ANA at 6 7 10 12 13 14,109
2'F-ANA at 1 2 3 5 7 13 15,61.9
2'F-ANA at 1 3 6 7 8 10 11 12 13 14,64.6
2'F-ANA at 4 5 6 7 8 10 11 12 13,48.7
2'F-ANA at 4 10 12 13,96.6
2'F-ANA at 2 4 8 9 10 11 12 13 14,61.8
2'F-ANA at 2 3 4 8 9 12 14 15,311
2'F-ANA at 1 3 4 6 7 10 12 13 14 15,48.3

# Block 4 — technique: protein binding microarray; form: double-stranded DNA, one strand shown; medium: in vitro; tested at: not given; baseline: not given; reading: higher = stronger binding
# Target: Histone acetyltransferase KAT6A, both winged helices, GST fusion (KAT6A, Homo sapiens, UniProt Q92794, residues 1-181)
# Setting: 8-mer, flanks averaged, mean of 2 arrays, mostly near background
# Construct (chain): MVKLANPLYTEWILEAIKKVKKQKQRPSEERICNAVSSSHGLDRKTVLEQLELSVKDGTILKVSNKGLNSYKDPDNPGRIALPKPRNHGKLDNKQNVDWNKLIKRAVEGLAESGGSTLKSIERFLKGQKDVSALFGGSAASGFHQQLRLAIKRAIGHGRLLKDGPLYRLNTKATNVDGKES
Oligonucleotide,E-score
TCGTGCAA,-0.0236
AATACGGT,0.13
AGACACAC,-0.00134
GTATGGGA,-0.0428
AAATCTGC,-0.112
ATCAGTAC,-0.0237
TGCCCGAA,-0.146
TCCTTTAA,-0.139
ATAAATTG,-0.00873
AGCTCAAT,-0.0904
GCAAGTCA,-0.0395
AACGTACT,-0.0727
GATGGCGA,0.139
CCAACCGA,-0.0869
AATAGACA,-0.148
AGTGAGAT,-0.0276
GCCCGAAC,-0.0123
AGCTTCCG,0.197
ATGCTACG,0.11
ACGCGTGA,0.258
GAATTAGC,-0.0605
TGGGAGAA,-0.279

# Block 5 — technique: RNA Bind-n-Seq; form: RNA; medium: in vitro; tested at: 1 µM; setting: whole 134-nt RNA, ends assumed; together with: 150 mM KCl; baseline: input library; reading: higher = stronger binding
# Target: Ras GTPase-activating protein-binding protein 1, C-terminal RGG region (G3BP1, Homo sapiens, UniProt Q13283)
# Sequence of UniProt Q13283 (whole entry, looked up): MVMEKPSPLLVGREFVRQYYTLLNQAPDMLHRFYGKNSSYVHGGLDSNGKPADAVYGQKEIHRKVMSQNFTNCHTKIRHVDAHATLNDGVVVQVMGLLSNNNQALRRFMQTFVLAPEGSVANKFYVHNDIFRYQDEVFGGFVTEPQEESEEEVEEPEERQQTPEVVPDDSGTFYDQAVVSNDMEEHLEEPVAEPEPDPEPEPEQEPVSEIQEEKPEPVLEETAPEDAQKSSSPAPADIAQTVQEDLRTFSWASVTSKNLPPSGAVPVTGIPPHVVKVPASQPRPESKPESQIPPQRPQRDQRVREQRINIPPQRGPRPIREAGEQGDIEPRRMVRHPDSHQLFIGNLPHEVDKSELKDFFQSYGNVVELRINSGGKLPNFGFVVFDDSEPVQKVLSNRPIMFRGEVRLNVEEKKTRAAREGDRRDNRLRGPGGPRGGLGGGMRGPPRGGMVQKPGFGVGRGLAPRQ
# Shared flanks, not repeated: GGGAGUUCUACAGUCCGACGAUC … UGGAAUUCUCGGGUGUCAAGG
Oligonucleotide,log2 enrichment
CUCAAGUCCUGUGCUACACAUCGUAUGUACCGAAUCGGGUUGGUUGGGGUUGGAAAGUAUUAUGUUACGCCGUUCGGAUCUGCACUUCCA,-0.611
CAAACUUAAAGUCUCCCUUGCUCGGAAGAAGCCUCCAAUGAACAGUAUGCGGGGUGGUCUGCCACCCCGUGAGGGCAGAGGCAUGCCACC,-1.04
UCCUGUGCUACACAUCGUAUGUACCGAAUCGGGUUUUUUUGGGUUUUUUUGGGAAAGGGAAAGUAUUAUGUUACGCCGUUCGGAUCUGCA,-0.471
ACCAUGCAGGUGGGCAUCUUUGGGUAGUGGGGCAAGGGGGGGAUAGGGAGGGGGGUAACACUUUGGGAACAGGUGGUCCCAGGUCGUUUC,-1.49
UGGGAGGUGGAUUUUGUUUAUUUUUUUAGCUCAUUUCCAGGGGUGGGAAUUUUUUUUUAAUAUGUGUCAUGAAUAAGGUUGUUUUUGAAA,1.67
UCCUGUGCUACACAUCGUAUGUACCGAAUCGGGGAAAAAAAGGGGAAAAAGGGGUGGGGAAAGUAUUAUGUUACGCCGUUCGGAUCUGCA,1.82
GCAGGAAGUAAAAACAAAUGGAAAUGCUUCGGAUAGUGGCAGGGGUGGGGGUUGCUAAGGAAAGGGUGGGAUGGGAGUGGGUAAAGAGUU,2.02
UCCUGUGCUACACAUCGUAUGUACCGAAUCGGGGAAAAAGGGAAAAAGGGGAAAAAGGGGAAAGUAUUAUGUUACGCCGUUCGGAUCUGC,-0.246
UCCUGUGCUACACAUCGUAUGUACCGAAUCGGGGAAAGGGGAAAGGGGAAAAAAAGGGGAAAGUAUUAUGUUACGCCGUUCGGAUCUGCA,1.41
CAAGUCCUGUGCUACACAUCGUAUGUACCGAAUCGGUUUUUUUGGAGGUUUUUGGAAAGUAUUAUGUUACGCCGUUCGGAUCUGCACUUC,-1.52
